Results gathered from unrelated publications.
A part holds a random share of what one study measured. Changes are numbered by the printed parent chain.

Sample 1
Target: CCND3, cyclin fold, Cln2 fusion (human)
Technique: yeast growth competition, sequencing
Matrix: yeast
Setting: weak parent motif
Reference: not given
Direction: higher = stronger binding
Parent: viral docking peptide; KKAKRRLFTISDS
Change	normalised enrichment score
KKAKRRLFAISDS [T9A]	0.161
KKAKKRLLTISDS [R5K F8L]	0.302
KKAKRALFTISDS [R6A]	0.275
KAAKRRLFTISDS [K2A]	0.156
KKAKRRLFTASDS [I10A]	0.0705
KKAKRRAFTISDS [L7A]	0.135
KKAKRRLATISDS [F8A]	0.144

Sample 2
Target: UBE2D2 UBC core domain (UniProt P62837)
UniProt P62837, sequence (whole entry, looked up): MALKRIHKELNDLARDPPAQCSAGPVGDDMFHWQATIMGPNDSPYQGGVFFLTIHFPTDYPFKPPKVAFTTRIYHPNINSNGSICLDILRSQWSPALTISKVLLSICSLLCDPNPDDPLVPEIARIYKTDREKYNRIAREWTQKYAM
Technique: yeast two-hybrid
Matrix: yeast
Setting: mostly zero background
Reference: not given
Direction: higher = stronger interaction
B1: RNF152 RING domain (UniProt Q8N8N0); chain ETLSQDSLLECQICFNYYSPRRRPKLLDCKHTCCSVCLQQMRTSQKDVRCPWCRGVTKLPPGFS
B2: MYCBP2 RING domain (UniProt O75592); chain TSLKQDADDMCMICFTEALSAAPAIQLDCSHIFHLQCCRRVLENRWLGPRITFGFISCPICKNKINHIVLKD
B3: RNF166 RING domain (UniProt Q96A37); chain GDSGLEAQYTCPICLEVYHRPVAIGSCGHTFCGECLQPCLQVPSPLCPLCRLPFDPKKVDK
Molecule	lacZ reporter activity
B1 (RNF152 RING domain)	2400
B2 (MYCBP2 RING domain)	0
YCEMGSTFQLCKICAENDKDVKIEPCGHLMCTSCLTAWQESDGQGCPFCRCEIKGTEPII (CBLB RING domain (UniProt Q13191))	0
B3 (RNF166 RING domain)	0

Sample 3
Target: Interferon regulatory factor 5, full length, phosphomimetic (IRF5, Homo sapiens, UniProt Q13568-2, residues 1-514, S451D/S453D/S456D/S462D)
Technique: protein-binding microarray
Molecule type: double-stranded DNA, one strand shown
Matrix: in vitro
Tested at: 940 nM top
Setting: 60-bp whole probe
Together with: salmon DNA 0.4 mg/ml
Reference: random background probes
Direction: higher = stronger binding
All sequences stand within: GCCTAGCAC … GTCTTGATTCGCTTGACGCTGCTG
Oligonucleotide	fitted relative affinity [z-score]
GACGATATCAGACTGGTGACGTGCTAG	-0.448
GACAGTCTCGGACTGGGGACGTGCTAG	1.69
CACTATTTAAGAACTATGCACGTGCTA	0.191
GACGGTCTCGTTCTCGGGACGTGCTAG	2.29
TTAGCACTGGGGTTTCGATTAGTGCTA	5.5
GACGATATCCTTATCCTGACGTGCTAG	-0.175
TTAGGGCTGGGACTGGGTTAGTGCTAG	-0.287
TTAGGTTTCGGGTATCGGTAAGTGCTA	11.4

Sample 4
Target: HLA class I histocompatibility antigen, A alpha chain, allele A*25:01 (Homo sapiens, UniProt P04439)
Read-out: peptide-MHC binding
Molecule type: peptide
Tested at: concentration not given
Molecule	binding
ETWVETWAF	inactive
SQLPPACPV	inactive
FLNPVIYTF	inactive
SLLFREVWK	inactive
YLDNVGVHI	inactive

Excerpt of the above (sample 1):
Change	normalised enrichment score
KKAKRRLFTASDS [I10A]	0.0705
